Experimental data of several laboratories.
Each numbered part is a random draw from the data of one study; scales do not carry over between parts. Positions count from the first letter of the parent shown.

Set 1
Target: CCNE1, cyclin fold, Cln2 fusion (human)
Method: yeast growth competition, sequencing
Sample: yeast
Notes: strong parent motif
Relative to: not given
Direction: higher = stronger binding
Measurement: normalised enrichment score
Starting sequence: PKMYT1 docking peptide (human); SFEPRNLLSLFED
SFEPRNLFSLFED [L8F]: 1.11
SFEPRNLLSHFED [L10H]: 1.26
SFFPRNLLSLFED [E3F]: 1.4
SFEPANALSLFED [R5A L7A]: 0.16
SFEERNLLSLFED [P4E]: 0.53
SFEPRNLLSLRED [F11R]: -0.84
SFEPRWLLSLFED [N6W]: 1.3
SMEPRNLLSLFED [F2M]: 0.791
SFEPVNLLSLFED [R5V]: 1.54
SFMPRNLLSLFED [E3M]: 2.49
SFEPRQLLSLFED [N6Q]: 1.28
SFEPRNLLSLFEM [D13M]: 2.14
SFEPRNLLSLFEN [D13N]: 2.33
GFEPRNLLSLFED [S1G]: 2.2
SFGPRNLLSLFED [E3G]: 0.843

Set 2
Target: Interferon regulatory factor 3, full length, phosphomimetic (IRF3, Homo sapiens, UniProt Q14653, residues 1-427, S386D/S396D/S398D/S402D/T404D/S405D)
Method: protein-binding microarray
Molecule type: double-stranded DNA, one strand shown
Sample: in vitro
Concentration: 2540 nM top
Notes: 60-bp whole probe
Added: salmon DNA 0.4 mg/ml
Relative to: random background probes
Direction: higher = stronger binding
Measurement: fitted relative affinity
Constant ends, left off below: GCCTAGCAC … GTCTTGATTCGCTTGACGCTGCTG
Construct (chain): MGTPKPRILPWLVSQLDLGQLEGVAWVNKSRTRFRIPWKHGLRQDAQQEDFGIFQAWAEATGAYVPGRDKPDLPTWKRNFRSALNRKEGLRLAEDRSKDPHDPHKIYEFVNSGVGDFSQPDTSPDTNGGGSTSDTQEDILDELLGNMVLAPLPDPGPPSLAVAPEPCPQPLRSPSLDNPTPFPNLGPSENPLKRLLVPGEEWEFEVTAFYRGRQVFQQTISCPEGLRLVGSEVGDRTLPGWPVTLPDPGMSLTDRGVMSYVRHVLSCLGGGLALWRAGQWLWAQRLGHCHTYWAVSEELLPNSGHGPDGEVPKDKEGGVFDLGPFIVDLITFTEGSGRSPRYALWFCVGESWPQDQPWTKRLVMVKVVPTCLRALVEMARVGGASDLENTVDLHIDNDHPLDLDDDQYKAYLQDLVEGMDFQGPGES
CCAATTCTCTTTTCACTTTCGTGCTAG: 3.21 z-score
GATGGACTGGGGTATCGGGACGTGCTA: -0.678 z-score
TTAGATTTCGGGACTAGATTAGTGCTA: 1.49 z-score
GACGATTTCGGGTTTCGAGACGTGCTA: 2.87 z-score
TCACCTTTTATATTGTAACTGTGCTAG: 2.91 z-score
GACGGTTTCCTTCTCCCGACGTGCTAG: 10.2 z-score
ACCATTTTGTTTTTCATTATGTGCTAG: 3.6 z-score
TTAGGTATCGACTTTCGTTTAGTGCTA: 1.42 z-score
ATTGCTTCCTCTTTTTTGTTGTGCTAG: 0.858 z-score
AACTGCTGCCGTCCACCACTGTGCTAG: -0.256 z-score
GGGCATTTAGAAAATGGAAATGTGCTA: -0.244 z-score
CACGATCTCAGTTTCGAGACGTGCTAG: 2.29 z-score
GACGATTTTAGACTGGAGACGTGCTAG: 0.385 z-score
CCTAATTCTCTTTTCACTTTGTGCTAG: 2.3 z-score
ATAGGTATCGGTCTCGGTTAGTGCTAG: 4.63 z-score
GACGGCATCCTTATCCTGACGTGCTAG: 0.135 z-score
TTAGTACTGGACTTTCGGTTAGTGCTA: 1.29 z-score
TTAGGTATCGGGACTGGGTTGGTGCTA: 1.04 z-score
CAGCATGCCTGTCCCTGGGTGTGCTAG: -0.851 z-score
GACGGTTTCGAATATCGGGACGTGCTA: 4.25 z-score
TTAGATCTCAGTCTCGATTAGTGCTAG: 0.802 z-score
GTGTTTCTCAACCATTTTGTTGTGCTA: 1.88 z-score
CTCAAGATTCCTCTCACCTCGTGCTAG: 0.359 z-score
GGATGTCTGTAGCTCATTCTGTGCTAG: 0.0338 z-score
CTCACCCAGTCCAGACACCCGTGCTAG: 0.489 z-score

Set 3
Target: Sal-like protein 4, full length isoform A (SALL4, Homo sapiens, UniProt Q9UJQ4, residues 1-1053)
UniProt Q9UJQ4, sequence (whole entry, looked up): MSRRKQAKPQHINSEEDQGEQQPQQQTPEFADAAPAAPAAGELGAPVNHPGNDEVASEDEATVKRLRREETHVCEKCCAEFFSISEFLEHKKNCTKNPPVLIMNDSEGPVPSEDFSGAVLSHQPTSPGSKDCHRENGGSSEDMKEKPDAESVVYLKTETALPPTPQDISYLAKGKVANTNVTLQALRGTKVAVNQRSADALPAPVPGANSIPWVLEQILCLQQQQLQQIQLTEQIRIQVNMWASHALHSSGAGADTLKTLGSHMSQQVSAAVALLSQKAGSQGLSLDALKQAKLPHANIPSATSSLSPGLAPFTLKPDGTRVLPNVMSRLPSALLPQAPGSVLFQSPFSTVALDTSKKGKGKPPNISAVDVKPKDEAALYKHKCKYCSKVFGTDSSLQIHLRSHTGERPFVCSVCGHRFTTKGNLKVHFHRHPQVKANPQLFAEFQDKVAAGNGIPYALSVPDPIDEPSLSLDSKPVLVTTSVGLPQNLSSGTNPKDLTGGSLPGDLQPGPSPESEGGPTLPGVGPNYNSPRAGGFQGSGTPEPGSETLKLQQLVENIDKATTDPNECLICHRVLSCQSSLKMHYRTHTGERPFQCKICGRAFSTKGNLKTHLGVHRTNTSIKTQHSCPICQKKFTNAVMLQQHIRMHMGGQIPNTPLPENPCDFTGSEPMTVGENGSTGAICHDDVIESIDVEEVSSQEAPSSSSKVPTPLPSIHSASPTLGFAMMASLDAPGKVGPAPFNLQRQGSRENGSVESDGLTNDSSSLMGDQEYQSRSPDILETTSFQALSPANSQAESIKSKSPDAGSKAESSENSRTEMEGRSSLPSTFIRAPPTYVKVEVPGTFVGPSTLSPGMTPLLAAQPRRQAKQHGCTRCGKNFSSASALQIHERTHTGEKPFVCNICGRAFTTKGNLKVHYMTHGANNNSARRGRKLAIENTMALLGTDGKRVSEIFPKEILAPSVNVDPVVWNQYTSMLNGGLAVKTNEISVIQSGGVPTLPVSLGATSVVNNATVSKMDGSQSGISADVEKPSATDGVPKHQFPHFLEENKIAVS
Method: universal PBM
Molecule type: double-stranded DNA, one strand shown
Sample: in vitro
Concentration: 600 nM
Notes: 8-mer, flanks averaged, mean of replicates
Direction: higher = stronger binding
Measurement: E-score
ACGTACTC: -0.0555
GAGTACCC: -0.238
CCAAATGA: 0.226
ACTCCACA: 0.00728
CGGTTTCA: -0.0416
GGCCCGCC: -0.355
GTTTCTGA: -0.0364
GTTCGTTA: 0.148
AGAGTCCC: -0.18
AGAAATTC: 0.044
GCTGTATA: 0.195
GAACTCAA: -0.0517
AGTCTGGC: -0.181
CAAGAGGC: -0.183

Set 4
Target: RING finger protein unkempt homolog, zinc fingers 1-6, GST-SBP tag (UNK, Homo sapiens, UniProt Q9C0B0, residues 30-357)
Method: RNA Bind-n-Seq
Molecule type: RNA
Sample: in vitro
Concentration: not given
Notes: RNA with constant flanks, human-mouse chimeric sites, ends assumed
Relative to: input RNA pool
Direction: higher = stronger binding
Measurement: bound/input enrichment
Residues (chain): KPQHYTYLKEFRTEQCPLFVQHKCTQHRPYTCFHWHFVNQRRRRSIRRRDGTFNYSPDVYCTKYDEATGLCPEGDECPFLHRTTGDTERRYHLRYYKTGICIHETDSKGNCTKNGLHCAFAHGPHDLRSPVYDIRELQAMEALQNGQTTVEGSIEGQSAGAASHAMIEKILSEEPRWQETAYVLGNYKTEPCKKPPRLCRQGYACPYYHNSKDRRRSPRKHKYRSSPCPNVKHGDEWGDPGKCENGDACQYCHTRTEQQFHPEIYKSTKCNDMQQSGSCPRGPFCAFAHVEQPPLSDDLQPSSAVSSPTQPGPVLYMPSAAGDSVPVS
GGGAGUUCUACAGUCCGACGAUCAAUUUCCGCAACUGUUUUUUAGACAUUCACAUCAGACGCCUUACUACCCUGGCCACAUUCUAGGUUUGUGUUAUUUCUCAGCUAUGGAUAUGAUCAAAUGAGAACACUGCUUAACUAAUGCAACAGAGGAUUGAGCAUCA: 0.643 ratio
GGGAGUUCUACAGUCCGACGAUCGCAAAGGAUGAUGAGGCGGCAGCUGUUGCCCUUUCCUCUCUCGUUCAUGCUUUGGAUGACUUAGACAUGGUCGCCAUCGUCCGAUAUGCUUAUGACAAAAGAUCUAAUCCUCAAGUCGGUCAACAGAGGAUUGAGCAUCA: 0.32 ratio
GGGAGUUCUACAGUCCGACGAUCCACACACUCUUCUGCGGGACCCUCAUCUUGCAGGCCCGGGCCUAUGUGGGACCCCGUGUCCUGGCAGUGGUGACCCGCACAGGGUUCUGCACGGCAAAAGGGGGCCUGGUGAGCUCCAUCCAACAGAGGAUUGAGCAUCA: 0.0765 ratio
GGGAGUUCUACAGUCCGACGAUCAAAGAGUGGAUAGAAUGUGCACACGGGAUCGGUGGGACCCGGGCGAAAAAGGAGUGCAAGAUAGAGUUCGAUGACUUCGAAGAGUGCUUGCUUCGGCACAAAACGAUGAGGCGAAUGCAUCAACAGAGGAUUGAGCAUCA: 0.285 ratio
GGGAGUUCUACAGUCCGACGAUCCACGUGUCUGCAGUACUUGAUGUGGACUACUCUCCCACUGGGAAGGAAUUUGUGUCUGCCAGCUUUGAUAAAUCUAUUAGAAUCUUUCCUGUGGACAAAAGUCGAAGCAGGGAAGUGUAUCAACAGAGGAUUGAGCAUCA: 0.407 ratio
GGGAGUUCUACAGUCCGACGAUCUGACAAGGGCACUGCAGAGCCAUGCCUUUCCUUGACAUCCAGAAAAGGCUGGGCAUCAGCCUGGACCGAUGGUUGACGUUCCUAAGCGCAGAACAGCCCUAUAAGAACGCCGCUCGGUGCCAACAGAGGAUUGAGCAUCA: 0.0497 ratio
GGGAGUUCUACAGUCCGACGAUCAGUACUGACUCAGGCGGAUUUUGCAACACCAAGCUCACAGCAGCAGCAUCUUAGUCACAGUAGGGUAGUUUUGGGGCUCUGUGGCCAGGGUUUUAUUCACAUGCAGGUUUUGAAAAUGUACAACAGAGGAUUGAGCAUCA: 2.74 ratio
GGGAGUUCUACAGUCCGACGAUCGUAAUGUUUAUUCAUUUAACUUAUUUUUAUAGCUAGAUAAAUAUUGUUAGUCUUAGACAAUAGCUCACAUUUUUUGAGAAGCAUGCCCUCCCUAUCCAUUUGUCUUAUAACAUGACCCAGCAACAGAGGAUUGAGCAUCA: 8.72 ratio
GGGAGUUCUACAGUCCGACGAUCUCAAGGGGGCACUGCAGAGCCAUGCCUUUCCUUGACAUACAGAAAAAGCUGGGCAUCAGCCUGGACCGGCACUUUAUGUUCCUAAGCGCAGAACAGCCCUAUAAGAACGCCGCUCGGUGCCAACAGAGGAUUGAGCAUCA: 0.0795 ratio
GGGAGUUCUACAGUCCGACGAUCUGGCGCCUGCGCUCCCCGUUUUUAAAUUUAAGUGUAUUUUUAUAAGAUACAUGUAUUUACAAUUGAGCUUUUGUUACAUAAUGCUGAAAACAUCUCUGAGAUUAUGAAAAAUGUUUCAAUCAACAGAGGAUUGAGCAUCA: 0.255 ratio
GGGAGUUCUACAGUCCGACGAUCCUGAGGAUACCACUGAAGAGACCUUAAAAGAAUCAUUUGAGGGCUCUCGUUCGGGCAGAAUAGUCACUGAUCGGGAAACUGGUUCUUUCCAAAGGGUUGGUUUUGUAGACUUUAAUAGUGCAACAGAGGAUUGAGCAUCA: 0.876 ratio

Set 5
Target: Ras GTPase-activating protein-binding protein 1, C-terminal RGG region (G3BP1, Homo sapiens, UniProt Q13283)
UniProt Q13283, sequence (whole entry, looked up): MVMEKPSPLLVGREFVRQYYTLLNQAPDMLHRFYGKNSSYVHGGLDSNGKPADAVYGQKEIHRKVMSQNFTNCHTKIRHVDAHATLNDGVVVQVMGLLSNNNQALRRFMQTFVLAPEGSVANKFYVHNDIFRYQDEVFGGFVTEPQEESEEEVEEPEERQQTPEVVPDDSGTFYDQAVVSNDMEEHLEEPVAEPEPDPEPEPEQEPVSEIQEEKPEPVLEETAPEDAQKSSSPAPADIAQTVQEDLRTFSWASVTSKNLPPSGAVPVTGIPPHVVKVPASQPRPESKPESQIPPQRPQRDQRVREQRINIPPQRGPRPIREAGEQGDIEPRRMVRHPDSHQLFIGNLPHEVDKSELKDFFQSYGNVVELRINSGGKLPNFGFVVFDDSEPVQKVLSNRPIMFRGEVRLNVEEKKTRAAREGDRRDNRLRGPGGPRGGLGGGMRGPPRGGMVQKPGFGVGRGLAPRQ
Method: RNA Bind-n-Seq
Molecule type: RNA
Sample: in vitro
Concentration: 1 µM
Notes: whole 134-nt RNA, ends assumed
Added: 150 mM KCl
Relative to: input library
Direction: higher = stronger binding
Measurement: log2 enrichment
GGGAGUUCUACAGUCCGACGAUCGCAGGAAGUACAAACAAAUGGAAAUGCUUCGGAUAGUGGCAGGGGUGGGGGUUGCUAAGGAAAGGGUGGGAUGGGAGUGGGUAAAGAGUUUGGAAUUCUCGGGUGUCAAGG: 1.43
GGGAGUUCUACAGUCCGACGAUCUCCUGUGCUACACAUCGUAUGUACCGAAUCGGGGAAAAAAAGGGGUGGGGUUUUUGGGGAAAGUAUUAUGUUACGCCGUUCGGAUCUGCAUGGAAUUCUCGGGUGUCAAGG: 1.61
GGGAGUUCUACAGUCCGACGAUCAAGUCCUGUGCUACACAUCGUAUGUACCGAAUCGGGAAAAAGGGAGGGUUUUUGGGAAAGUAUUAUGUUACGCCGUUCGGAUCUGCACUUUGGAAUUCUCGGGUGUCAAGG: 1.45
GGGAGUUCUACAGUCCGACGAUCUGGCCCUGGUGGCAUGCGGGGAGGAAGAGGUGGCCUCAUGGAUCGUGGUGGUCCCGGUCGAAUGUUCAGAGGUGGCCGUGGUGGAGACAGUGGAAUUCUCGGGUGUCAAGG: 1.59
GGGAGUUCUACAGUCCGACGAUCUCUAACUAAUUUUUCUUUGUUUUUUAACAGGAGAGGAGAUACUUACCCUUAAGUCAAGCCAGAAAAAGUGGUUUCCAAAUGGAUUGGCUGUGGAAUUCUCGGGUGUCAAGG: -1.82
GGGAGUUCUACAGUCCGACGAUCUGCGAGGUGGAUUUUGUUUAUUUUUUUAGCUCAUUUCCAGGGGUGGGAAUUUUUUUUUAAUAUGUGUCAUGAAUAAAGUUGUUUUUGAAAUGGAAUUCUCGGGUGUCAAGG: 2.29
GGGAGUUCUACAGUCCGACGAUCAAGUCCUGUGCUACACAUCGUAUGUACCGAAUCGGAAAAAAAGGAAAGGUUUUUGGAAAGUAUUAUGUUACGCCGUUCGGAUCUGCACUUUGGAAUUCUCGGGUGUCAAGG: -2.18
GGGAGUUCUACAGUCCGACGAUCUCCUGUGCUACACAUCGUAUGUACCGAAUCGGGGAAAAAAGGGAAAAAAGGAAAAAAGGAAAGUAUUAUGUUACGCCGUUCGGAUCUGCAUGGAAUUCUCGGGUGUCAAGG: -1.15
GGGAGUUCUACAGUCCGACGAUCUGGCCCUGCUGGCAUGCGGGGAGGAAGAGGUGGCCUCAUGGAUCGUGGUGGUCCCGGUGGAAUGUUCAGAGGUGGCCGUGGUGGAGACAGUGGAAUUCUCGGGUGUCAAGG: 2.1

Set 6
Target: ABI1, truncated, D143A, DHFR fusion (Arabidopsis thaliana)
Method: DHFR PCA, deep sequencing
Sample: yeast
Notes: methotrexate growth selection, single substitutions
Added: (+)-ABA 0.0091 µM
Relative to: wild-type fitted maximum
Direction: higher = stronger binding
Measurement: relative binding score
Starting sequence: PYL1, truncated, DHFR fusion (Arabidopsis thaliana); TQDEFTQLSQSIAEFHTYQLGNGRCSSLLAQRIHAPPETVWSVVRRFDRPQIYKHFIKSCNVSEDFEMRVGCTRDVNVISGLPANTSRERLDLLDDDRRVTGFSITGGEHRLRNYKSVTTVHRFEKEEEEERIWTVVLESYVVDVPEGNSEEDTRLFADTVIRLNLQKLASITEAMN
L112E: -2.65%
D65L: 1.64%
D95H: -4.69%
D75V: 32.6%
S63M: 4.66%
D96L: -2.58%
S104D: -4.53%
S27N: 44%
R99C: 11.7%
E128A: 41.2%
R49Y: -7.17%
